Published values of several laboratories.
Values joined by “and” are separate records of one study, mostly repeats; a detail may differ. ± gives the spread as reported.

SMILES	assay	system	conditions	how to read	measurement	value
COc1ccc2c(=O)n(C)c(-c3ccccc3)nc2c1		Sprague-Dawley rat, male, heart	oral, 30 mg/kg, 0.5 h		concentration	21.1 ng/g
CC(=O)c1cccc(NC(=O)CSc2nnc(-c3cc4ccccc4cc3O)n2C)c1		octanol/buffer	pH 11		logP	1.48
O=C(Nc1nc2cccc(-c3ccc(CN4CCS(=O)(=O)CC4)cc3)n2n1)C1CC1	measured: aspartate aminotransferase increased	human rheumatoid arthritis patients	oral, 150 mg once daily, 4 weeks, regardless of relatedness		treatment-emergent adverse events	0%
Cc1ccc([C@@H]2O[C@H](CO)[C@@H](O)[C@H](O)[C@H]2O)cc1Cc1ccc(-c2ccc(F)cc2)s1	measured: inorganic phosphorus	Japanese type 2 diabetes patients	100 mg, day 15, 24 h urine collection	reference: baseline	urinary phosphate excretion change	30.3 mg
CC[C@H](C)/C=C/C(=O)N1C[C@@H](C)C[C@H]1C(=O)N[C@@H](CCC1CCCCC1)C(=O)N[C@@H](CC(C)C)C(=O)NC(C)(C)C(=O)N[C@@H](CC(C)C)C(=O)N[C@@H](CC(C)C)C(=O)NC(C)(C)C(=O)NC(C)(C)C(=O)NCCC(=O)N[C@@H](C)CN(C)C	circular dichroism	phosphate buffer	pH 7.4, 20 °C		alpha-helix content	93.6%
Cc1cc(NC2CCN(C(=O)OC3CCN(C(=O)/C=C/CN(C)C)C3)CC2)n2ncc(C(C)C)c2n1 (stereo not drawn)	CTCAE v4.0, measured: Arthralgia	patients with advanced solid tumours	oral, dose not given, all schedules, grade 3 or higher		patients with TEAE	0%
COC(=O)c1ccccc1-c1c2ccc(=O)cc-2oc2c1ccc1cccc(N(C)C)c12		HCl 12.5 mM	pH 1.9, 10% DMSO		emission maximum	580 nm
N#Cc1ccc2c(c1)[C@H]1CCCN(C(=O)c3ccc4[nH]cnc4c3)[C@H]1C2		human males	80 mg, end of trial		DHEA-S level	5.9 µmol/L
CC[C@H](C)[C@H](NC(=O)[C@H](CO)NC(=O)[C@H](Cc1ccc(O)cc1)NC(=O)[C@H](CC(=O)O)NC(=O)[C@H](CO)NC(=O)[C@@H](NC(=O)[C@H](Cc1ccccc1)NC(=O)[C@@H](NC(=O)CNC(=O)[C@H](CCC(=O)O)NC(=O)[C@H](C)NC(=O)[C@@H](N)Cc1ccc(O)cc1)[C@@H](C)O)[C@@H](C)CC)C(=O)N[C@@H](C)C(=O)N[C@@H](CCSC)C(=O)N[C@@H](CC(=O)O)C(=O)N[C@@H](CCCCN)C(=O)N[C@H](C(=O)N[C@@H](Cc1c[nH]cn1)C(=O)N[C@@H](CCC(N)=O)C(=O)N[C@@H](CCC(N)=O)C(=O)N[C@@H](CC(=O)O)C(=O)N[C@@H](Cc1ccccc1)C(=O)N[C@H](C(=O)N[C@@H](CC(N)=O)C(=O)N[C@@H](Cc1c[nH]c2ccccc12)C(=O)N[C@@H](CC(C)C)C(=O)N[C@@H](CC(C)C)C(=O)N[C@@H](C)C(=O)N[C@@H](CCC(N)=O)C(=O)N[C@@H](CCCCN)C(=O)NCC(=O)N[C@@H](CCCCN)C(=O)N[C@@H](CCCCN)C(=O)N[C@@H](CC(N)=O)C(=O)N[C@@H](CC(=O)O)C(=O)N[C@@H](Cc1c[nH]c2ccccc12)C(=O)N[C@@H](CCCCN)C(=O)N[C@@H](Cc1c[nH]cn1)C(=O)N[C@@H](CC(N)=O)C(=O)N[C@H](C(=O)N[C@H](C(=O)N[C@@H](CCC(N)=O)C(=O)O)[C@@H](C)O)[C@@H](C)CC)C(C)C)[C@@H](C)CC	GIPR luciferase bioassay	C57BL/6 mice male, serum	subcutaneous, 1.25 µg, 1 h		active peptide in serum	not detected
CC(=O)N(C)C1CCN(c2cc(F)cc(NC(=O)c3cc4c(F)ccc(C)c4[nH]3)c2)C1 (stereo not drawn)		CD1 mouse	oral, 50 mg/kg		CL/F	340 L/h/kg
O=C(O)CCC(=O)O.[2H]C([2H])([2H])Oc1cc(C)c2[nH]ccc2c1CN1CC[C@@H](C2CC2)C[C@H]1c1ccc(C(=O)O)cc1	multiple ascending dose	healthy Chinese subjects	50 mg twice daily		subjects with elevated AST TEAE	0%
CCc1cc(C(=O)NC)c2nccc(N3CCc4c(cc(Cn5ccnc5)cc4-c4cn(C)nc4C(F)(F)F)C3=O)c2c1		Sprague Dawley rats	oral, 100 mg/kg once daily, 7 days		blood CHCM	306 ± 5.2 g/L
N#C[C@@]1(c2ccc3c(N)ncnn23)O[C@H](CO)[C@@H](O)[C@H]1O		male beagle dogs, plasma	oral solution, 5 mg/kg		lag time	0 h
CCN(Cc1ccc(F)cc1)c1ccc(CO)c(Cl)c1		male F344 rat, serum	oral, 100 mg/kg/day, 2 days		AST	587 U/L
NC1(C(=O)N[C@@H](CCO)c2ccc(Cl)cc2)CCN(c2nc[nH]c3nccc2-3)CC1		metastatic CRPC patients	400 mg b.i.d., grade 3 to 4, treatment-related, with: enzalutamide 160 mg daily		incidence of Hyper-glycaemia	28.6%
CCN1CCN(Cc2ccc(Nc3ncc(F)c(-c4cc(F)c5nc6n(c5c4)[C@H](C)CCC6)n3)nc2)CC1		human, plasma	500 mg single dose, mean		Vd/F	1970 L
CC(C)(C(=O)N1CCOc2c(C#N)cncc2C1)C(F)F		human, both sexes	oral, 30 mg single dose		subjects with fatigue TEAE	16.7%
N#CN1C[C@H](n2nc(-c3ccc(Oc4ccc(Cl)cn4)cc3)c(C(N)=O)c2N)CCC12CC2		human, fasted, plasma	oral, 600 mg, i=12		AUC(0-inf), geometric mean	20600 ng·h/mL

SMILES	assay	system	conditions	how to read	measurement	value
O=C(O)CSc1nnc(Br)n1-c1ccc(C2CC2)c2ccccc12		KM mouse, chronic hyperuricaemia model	dose not given, day 9		body weight	31.2 g and 30.8 g and 25.4 g and 33.2 g and 25.8 g and 29.6 g
COc1cccc(NC(=O)CSc2nnnn2C)c1		octanol/buffer	pH 11, known kinase inactives set		logP	1.48
CNc1ccc(-c2nc3ccc(O)cc3s2)cc1 [carbon-11 labelled]	microPET/CT imaging	APP/PS1 mouse, AD model, heart	intravenous, 15 min		SUV	0.749 ± 0.482
CN(CCCN1CCN(C(=O)CN2CCN(CC(=O)[O-])CCN(CC(=O)[O-])CCN(CC(=O)[O-])CC2)CC1)c1ccc2nccc(C(=O)NCC(=O)N3CC(F)(F)C[C@H]3C#N)c2c1.[68Ga+3]		mice, HT-1080.hFAP and HT-1080 wild-type xenografts, muscle	iv, 500 pmol, 1 h post injection		uptake	0.5 ± 0.5 %IA/g
COc1ccc([C@@H](O)c2cc(-c3ncnc4cc(N5CCOCC5)ccc34)c(F)cc2Cl)nn1		locally advanced rectal cancer patients	50 mg, with: capecitabine and radiotherapy		decreased appetite TEAE incidence	0%
CC1=C(c2cccc(O)c2)[C@H](c2ccc(OCCN3CC(CF)C3)cc2)Oc2ccc(O)cc21		human, plasma	oral, 1400 mg single dose, geometric mean		AUC(0-24 h)	1410 ng·h/mL
Cc1cc(-c2nccc3c2ccn3CC(=O)Nc2ccc(-c3cnccn3)cn2)ccn1		human	SAD part, single 40 mg dose		subjects with any IMP-related TEAE	16.7%
COc1cc(Nc2ncc3c(n2)-c2ccc(Cl)cc2C(c2c(F)cccc2OC)=NC3)ccc1C(=O)O	measured: Fever, grade 1	cancer patients, phase 1/2	oral, dose not given, with: pembrolizumab		patients with adverse event	8%
CN(C)CCCC1(c2ccc(F)cc2)OCc2cc(C#N)ccc21 (stereo not drawn)	empty perfusion, no placenta	maternal circuit tubing	5 µM, 360 min	reference: initial amount	loss by adsorption	42.7 ± 11.3%
O=C(OC(C(F)(F)F)C(F)(F)F)N1CCN(Cc2cccc(Oc3ccccc3)c2)CC1	PET blocking study	rhesus monkey, brain CB	0.1 mg/kg, compound pretreatment, with: [18F]T-401 tracer		Ktrans	0.0193 min⁻¹
COc1ccc2c(c1)sc(-c1ccc(N(C)C)cc1)[n+]2C		PBS	free dye		emission maximum wavelength	484 nm
CC(C)c1nc(N(C)S(C)(=O)=O)nc(-c2ccc(F)cc2)c1/C=C/[C@@H](O)C[C@@H](O)CC(=O)O		Wistar albino rat, both sexes, plasma	oral, 20 mg/kg		elimination rate constant	1.25e-05 s⁻¹ and 2.44e-05 s⁻¹ and 2.53e-05 s⁻¹ and 2.31e-05 s⁻¹
CCCn1cc(C)c2c(=O)[nH]c(-c3cc(S(=O)(=O)N4CCN(CC)CC4)ccc3OCC)nc21		human	concentration not given		priapism incidence	61.1%
CCn1cc(Cl)c2c(Cc3ccc(C(F)(F)F)nc3)n(C)nc2c1=O		rat Sprague-Dawley male, blood	intravenous, 1 mg/kg		CLint,u	21.2 L/h/kg
CCn1c(=O)c(-c2cc(NC(=O)Nc3ccccc3)c(F)cc2Br)cc2cnc(NC)cc21	measured: lipase increased	human, mild hepatic impairment	oral, 50 mg single dose		participants with drug-related TEAE	62.5%
COc1cc(CCC(=O)O)ccc1O[C@@H]1O[C@H](C(=O)O)[C@@H](O)[C@H](O)[C@H]1O		human, cerebrospinal fluid	concentration not given, median		CSF concentration	1.7 nM
N[C@H]1C(O)O[C@H](CO)[C@@H](O)[C@@H]1O (stereo partly drawn)		aqueous solution	1 mM, with: glucose		osmolality	0 mOsmol/kg
C=CC(=O)NC1CCN(c2ncc3ncnc(Nc4ccc(Oc5ccc6c(c5)ncn6C)c(C)c4)c3n2)CC1		healthy male volunteers, plasma	oral tablet, 60 mg, dose-normalised Cmax, adjusted geometric mean	reference: oral over intravenous microtracer	dose-normalised Cmax ratio	26.1%

Some of these lines once more:
SMILES	assay	system	conditions	how to read	measurement	value
O=C(Nc1nc2cccc(-c3ccc(CN4CCS(=O)(=O)CC4)cc3)n2n1)C1CC1	measured: aspartate aminotransferase increased	human rheumatoid arthritis patients	oral, 150 mg once daily, 4 weeks, regardless of relatedness		treatment-emergent adverse events	0%
Cc1ccc([C@@H]2O[C@H](CO)[C@@H](O)[C@H](O)[C@H]2O)cc1Cc1ccc(-c2ccc(F)cc2)s1	measured: inorganic phosphorus	Japanese type 2 diabetes patients	100 mg, day 15, 24 h urine collection	reference: baseline	urinary phosphate excretion change	30.3 mg
CC[C@H](C)/C=C/C(=O)N1C[C@@H](C)C[C@H]1C(=O)N[C@@H](CCC1CCCCC1)C(=O)N[C@@H](CC(C)C)C(=O)NC(C)(C)C(=O)N[C@@H](CC(C)C)C(=O)N[C@@H](CC(C)C)C(=O)NC(C)(C)C(=O)NC(C)(C)C(=O)NCCC(=O)N[C@@H](C)CN(C)C	circular dichroism	phosphate buffer	pH 7.4, 20 °C		alpha-helix content	93.6%
Cc1cc(NC2CCN(C(=O)OC3CCN(C(=O)/C=C/CN(C)C)C3)CC2)n2ncc(C(C)C)c2n1 (stereo not drawn)	CTCAE v4.0, measured: Arthralgia	patients with advanced solid tumours	oral, dose not given, all schedules, grade 3 or higher		patients with TEAE	0%
